Measured values gathered from unrelated publications.
Lines come from different studies, so protocols differ.

CC1(C)CC[C@]2(NC(=O)C(C)(F)F)CC[C@]3(C)[C@H](C(=O)C=C4[C@@]5(C)C=C(C#N)C(=O)C(C)(C)[C@@H]5CC[C@]43C)[C@@H]2C1  CL/F (human; 150 mg single dose, mean, alone): 115 L/h
CCN1CCN(Cc2ccc(Nc3ncc(F)c(-c4cc(F)c5nc(C)n(C(C)C)c5c4)n3)nc2)CC1  CL/F (fasted healthy human subjects; oral, 200 mg, capsule): 54.4 L/h
C#Cc1cccc(Nc2ncnc3cc(OCCOC)c(OCCOC)cc23)c1  CL/F (human; 100 mg): ~8 L/h
Cn1c(=O)oc2ccc(-c3ccc(C[C@@H](C#N)NC(=O)[C@@H]4CNCCCO4)cc3)cc21  CL/F (human, plasma; oral, 25 mg single dose, range over normal, mild, moderate groups): 6.09 to 7.72 L/h
Cn1cc(-c2cn3nccc3c(-c3cnn([C@]4(CC#N)C[C@@H](C#N)C4)c3)n2)cn1  CL/F (healthy human, plasma; 100 mg once daily, day 10, multiple dose, fed, geometric mean): 51.3 L/h
Cn1cncc1[C@@](N)(c1ccc(Cl)cc1)c1ccc2c(c1)c(-c1cccc(Cl)c1)cc(=O)n2C  CL/F (human, plasma; oral, median, across dose levels): 630 mL/min/m²
Cn1nnc2c(C(N)=O)ncn2c1=O  CL/F (human patients, plasma; oral, 20 mg/m2, day 5, dose level DL3, median, with: talazoparib 600 µg/m2): 12.3 L/h/m2
Cc1ncnc2c1ccn2[C@@H]1C[C@H](Oc2cc(C(F)F)c(F)c3c2CNCC3)[C@@H](O)[C@H]1O  CL/F (human; oral, 0.5 mg twice daily): 11 L/h
CN1C(=O)[C@@H](NC(=O)c2nnc(Cc3ccccc3)[nH]2)COc2cccnc21  CL/F (healthy human, fasted, plasma; oral, 200 mg single dose, geometric mean): 6.24 L/h
CC1(COc2ccc3c(c2)ncn3-c2ccc3cccc(N4CCC(N)CC4)c3n2)COC1  CL/F (human patients, recurrent/progressive HGG or DIPG, serum; oral, 170 mg/m^2, day 1, median): 38.9 L/h/m²
C[C@@H](Oc1ccc(S(C)(=O)=O)cc1C(=O)N1C[C@@H]2C[C@]2(c2cc(C(F)(F)F)on2)C1)C(F)(F)F  CL/F (elderly humans, plasma; 25 mg once daily, single dose, geometric mean): 4.19 L/h
CCn1cc(C(=O)N2CCOCC2)c(=O)c2cc(NC3Cc4ccccc4C3)cnc21  CL/F (human, plasma; oral, 900 mg BID, day 7, fed, tablet, male): 19.6 L/h
C[C@H](Oc1ccc(Br)cc1-c1ccon1)C(=O)O  CL/F (healthy male humans, plasma; oral, 400 mg once daily, day 10): 4.79 L/h
CNC(=O)n1ccc2cc(Oc3ccnc(NC(=O)c4ccc(C5CCN(CCO)CC5)cc4)c3)c(OCCOC)cc21  CL/F (healthy human; oral, 35 mg, high-fat meal, geometric mean): 349 L/h
C#C[C@]1(CO)O[C@@H](n2cnc3c(N)nc(F)nc32)C[C@@H]1O  CL/F (human, plasma; oral, 15 mg, single dose, geometric mean): 32.5 L/h
C[C@H](O)c1cc(C(=O)N[C@@H](C)Cn2ccc(-c3ccc(C#N)c(Cl)c3)n2)n[nH]1  CL/F (human, fasted, plasma; oral solution, 300 mg 14C-darolutamide, geometric mean): 3.94 L/h
